Assay results pooled from the literature.
A part holds a random share of what one study measured. “And” joins repeats or separate records; there may be more than shown.
Sequence of UniProt Q5BJF2 (whole entry, looked up): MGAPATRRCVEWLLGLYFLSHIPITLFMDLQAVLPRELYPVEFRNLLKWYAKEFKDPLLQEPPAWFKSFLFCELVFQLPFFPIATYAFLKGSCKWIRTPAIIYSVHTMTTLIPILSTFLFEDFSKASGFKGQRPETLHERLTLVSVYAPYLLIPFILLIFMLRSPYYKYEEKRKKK

Sample 1 — organism: Plasmodium berghei; mode: inhibitor; cell line: Huh-7; strain: GFP-expressing, liver stage; tested at: 10 µM; time: 24 h; baseline: untreated control
SMILES | infection rate [%]
Cc1cc(-n2c(=O)[nH]c(=O)n(C)c2=O)ccc1Oc1ccc(SC(F)(F)F)cc1 | 89.6
NC(=O)NC(=O)Cc1ccccc1 | 109
CCN(CC)CCOC(=O)c1ccc(N)cc1 | 83.9
Nc1nc(N)c2nc(-c3ccccc3)c(N)nc2n1 | 96.5
Clc1ccc(C(Cn2ccnc2)OCc2ccsc2Cl)c(Cl)c1 (stereo not drawn) | 29.4
CC(CN(C)C)CN1c2ccccc2Sc2ccccc21 (stereo not drawn) | 73.1
COc1ccc(NS(=O)(=O)c2ccc(N)cc2)nn1 | 94.7
CC(C(=O)O)c1ccc(C(=O)c2cccs2)cc1 (stereo not drawn) | 109
CNCCC=C1c2ccccc2CCc2ccccc21 | 79.9

Sample 2 — organism: Sarcocystis neurona; effect on: parasite activity; tested at: 10 µM; time: 96 h
Structure (SMILES) | activity class
C#C[C@]1(O)CC[C@H]2[C@@H]3CCC4=Cc5oncc5C[C@]4(C)[C@H]3CC[C@@]21C | inactive
CC[N+](C)(CC)CCOC(=O)C(O)(c1ccccc1)C1CCCCC1 (stereo not drawn) | inactive
Cc1cn([C@H]2C=C[C@@H](CO)O2)c(=O)[nH]c1=O | inactive
CC(=O)[C@H]1CC[C@H]2[C@@H]3CCC4=CC(=O)CC[C@]4(C)[C@H]3CC[C@]12C | inactive
CNCC[C@@H](Oc1ccccc1C)c1ccccc1 | inactive
CCN1CCC[C@H]1CNC(=O)c1cc(S(N)(=O)=O)ccc1OC | inactive

Sample 3 — mode: inhibitor; notes: literature data
Target: Synaptic vesicular amine transporter (SLC18A2, Homo sapiens, UniProt Q05940)
Sequence of UniProt Q05940 (whole entry, looked up): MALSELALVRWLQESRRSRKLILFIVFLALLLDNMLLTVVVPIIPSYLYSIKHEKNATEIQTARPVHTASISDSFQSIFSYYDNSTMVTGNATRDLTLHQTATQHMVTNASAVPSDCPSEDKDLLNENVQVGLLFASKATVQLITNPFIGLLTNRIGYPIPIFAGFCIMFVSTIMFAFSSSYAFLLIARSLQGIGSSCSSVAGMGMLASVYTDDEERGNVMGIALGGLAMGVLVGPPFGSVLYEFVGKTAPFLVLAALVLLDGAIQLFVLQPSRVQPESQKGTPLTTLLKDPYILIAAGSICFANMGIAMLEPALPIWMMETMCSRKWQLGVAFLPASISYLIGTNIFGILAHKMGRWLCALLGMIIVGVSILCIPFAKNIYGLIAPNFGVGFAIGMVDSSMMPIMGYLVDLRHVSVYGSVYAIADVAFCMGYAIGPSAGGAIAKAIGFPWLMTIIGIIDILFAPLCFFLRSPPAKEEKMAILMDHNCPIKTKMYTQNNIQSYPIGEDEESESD
SMILES | IC50 [µM]
N[C@@H](Cc1ccc(O)c(O)c1)C(=O)O | 8.1
COc1ccc2c(c1)c(CC(=O)O)c(C)n2C(=O)c1ccc(Cl)cc1 | > 10
Cc1c(O)cccc1C(=O)N[C@@H](CSc1ccccc1)[C@H](O)CN1C[C@H]2CCCC[C@H]2C[C@H]1C(=O)NC(C)(C)C | 9.9
CCN(CCO)CCCC(C)Nc1ccnc2cc(Cl)ccc12 (stereo not drawn) | 2.97
CN1CC[C@@H](NC(=O)Nc2ccc(C#N)cc2)C[C@@H]1c1nc2ccccc2[nH]1 | > 10
CN(C)CCCN1c2ccccc2Sc2ccccc21 | 7.17
CC(CCc1ccc(O)cc1)NCC(O)c1ccc(O)cc1 (stereo not drawn) | 0.247
CCc1nn(CCCN2CCN(c3cccc(Cl)c3)CC2)c(=O)n1CCOc1ccccc1 | 0.667
Cc1ccnc2c1NC(=O)c1cccnc1N2C1CC1 | > 10
CC(=O)O[C@H]1C(=O)[C@@]2(C)[C@H]([C@H](OC(=O)c3ccccc3)[C@]3(O)C[C@H](OC(=O)[C@H](O)[C@@H](NC(=O)c4ccccc4)c4ccccc4)C(C)=C1C3(C)C)[C@]1(OC(C)=O)CO[C@@H]1C[C@@H]2O | > 10
CCCN(CCC)CCc1cccc2c1CC(=O)N2 | > 10
C=CC(=O)Nc1cc(Nc2nccc(-c3cn(C)c4ccccc34)n2)c(OC)cc1N(C)CCN(C)C | 1.05
Fc1ccc([C@@H]2CCNC[C@H]2COc2ccc3c(c2)OCO3)cc1 | 6.7
Cc1cnc(NC(=O)C2=C(O)c3ccccc3S(=O)(=O)N2C)s1 | > 10
CN1CCN(CCCN2c3ccccc3Sc3ccc(Cl)cc32)CC1 | 3.72
OCCN1CCN(CCCN2c3ccccc3Sc3ccc(Cl)cc32)CC1 | 1.88

Single results of other studies
Compound | target or system | test | conditions | endpoint | value
Cn1cncc1[C@@](O)(COc1ccc(C#N)cc1-c1ccc(OC(F)(F)F)cc1)c1ccc(C#N)cc1 | HEK293T | high-content imaging | 10 µM, 12 h | mitotic cells | 77.3% and 65.8%
O=C(Nc1cccnn1)N1CC(CC=Cc2cncc(Oc3ccc(C(F)(F)F)cn3)n2)C1 | TMEM97 (Homo sapiens, UniProt Q5BJF2) | GPCR binding panel | – | Ki | 8.41 µM

Some of these lines once more (sample 1):
SMILES | infection rate [%]
CNCCC=C1c2ccccc2CCc2ccccc21 | 79.9
NC(=O)NC(=O)Cc1ccccc1 | 109
CC(C(=O)O)c1ccc(C(=O)c2cccs2)cc1 (stereo not drawn) | 109
CC(CN(C)C)CN1c2ccccc2Sc2ccccc21 (stereo not drawn) | 73.1
Nc1nc(N)c2nc(-c3ccccc3)c(N)nc2n1 | 96.5
